Results of several laboratories.
Numbered parts are unrelated; each lists some results of a single study.

Block 1
Target: Prothrombin, mature alpha-thrombin (F2, Homo sapiens, UniProt P00734)
Method: aptamer microarray, sandwich
Molecule type: DNA with 2'F-ANA
Matrix: in vitro
Concentration: 200 nM
Notes: whole 15-mer aptamer, many near background
With: Cy3 exosite-II aptamer, 400 nM
Reading: higher = stronger binding
Oligonucleotide | mean fluorescence intensity
GGTTGGTGTGGTTGG (2'F-ANA at 1 3 4 5 6 7 8 9 10 12 13 15) | 50 a.u.
GGTTGGTGTGGTTGG (2'F-ANA at 1 3 7 8 10 12 14) | 61.5 a.u.
GGTTGGTGTGGTTGG (2'F-ANA at 1 2 5 9 10 12 13 15) | 58.8 a.u.
GGTTGGTGTGGTTGG (2'F-ANA at 1 3 4 7 10 13 15) | 56.4 a.u.

Block 2
Target: Histone acetyltransferase KAT6A, both winged helices, GST fusion (KAT6A, Homo sapiens, UniProt Q92794, residues 1-181)
Method: protein binding microarray
Molecule type: double-stranded DNA, one strand shown
Matrix: in vitro
Concentration: not given
Notes: 8-mer, flanks averaged, mean of 2 arrays, mostly near background
Relative to: not given
Reading: higher = stronger binding
Target sequence (chain): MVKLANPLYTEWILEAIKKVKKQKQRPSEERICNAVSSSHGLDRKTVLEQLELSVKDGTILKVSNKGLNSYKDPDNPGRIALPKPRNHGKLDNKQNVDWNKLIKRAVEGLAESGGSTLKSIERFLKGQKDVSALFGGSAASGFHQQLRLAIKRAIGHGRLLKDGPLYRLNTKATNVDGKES
Oligonucleotide | E-score
AGACCGCA | 0.14
GCCGGTTA | 0.135
ATCATGAA | -0.0679
AAGGAGGC | -0.119

Block 3
Target: Sal-like protein 4, full length isoform A (SALL4, Homo sapiens, UniProt Q9UJQ4, residues 1-1053)
UniProt Q9UJQ4, sequence (whole entry, looked up): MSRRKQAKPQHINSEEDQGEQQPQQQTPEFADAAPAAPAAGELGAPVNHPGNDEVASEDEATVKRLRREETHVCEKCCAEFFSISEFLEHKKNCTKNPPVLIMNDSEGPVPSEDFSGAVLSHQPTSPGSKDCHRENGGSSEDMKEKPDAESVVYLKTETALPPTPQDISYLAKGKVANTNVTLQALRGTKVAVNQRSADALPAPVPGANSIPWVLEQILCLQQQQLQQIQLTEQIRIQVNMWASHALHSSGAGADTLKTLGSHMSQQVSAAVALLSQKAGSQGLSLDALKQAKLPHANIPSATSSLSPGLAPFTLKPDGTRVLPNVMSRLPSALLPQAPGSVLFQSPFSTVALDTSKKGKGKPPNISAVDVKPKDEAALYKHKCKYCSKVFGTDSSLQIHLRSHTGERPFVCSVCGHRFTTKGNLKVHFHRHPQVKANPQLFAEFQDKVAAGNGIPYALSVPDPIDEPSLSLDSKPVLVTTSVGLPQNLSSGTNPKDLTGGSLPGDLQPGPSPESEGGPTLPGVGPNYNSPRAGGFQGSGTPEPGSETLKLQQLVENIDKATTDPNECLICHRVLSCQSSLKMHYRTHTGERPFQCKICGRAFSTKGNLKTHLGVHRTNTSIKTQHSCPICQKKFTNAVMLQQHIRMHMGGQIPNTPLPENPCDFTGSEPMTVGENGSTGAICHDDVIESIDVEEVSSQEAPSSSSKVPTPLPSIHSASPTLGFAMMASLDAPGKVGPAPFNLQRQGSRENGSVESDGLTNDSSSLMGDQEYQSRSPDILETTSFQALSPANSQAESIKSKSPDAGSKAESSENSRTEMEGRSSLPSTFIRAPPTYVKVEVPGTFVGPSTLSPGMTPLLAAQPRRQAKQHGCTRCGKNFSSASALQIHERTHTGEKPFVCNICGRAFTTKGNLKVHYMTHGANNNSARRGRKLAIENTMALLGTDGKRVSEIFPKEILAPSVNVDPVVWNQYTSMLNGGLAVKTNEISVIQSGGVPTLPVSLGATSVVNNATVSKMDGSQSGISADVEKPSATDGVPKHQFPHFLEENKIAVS
Method: universal PBM
Molecule type: double-stranded DNA, one strand shown
Matrix: in vitro
Concentration: 600 nM
Notes: 8-mer, flanks averaged, mean of replicates
Reading: higher = stronger binding
Oligonucleotide | E-score
AACGGAGC | -0.248
CGGACAAG | -0.15
AAGCGCTC | -0.158

Single results of other studies
Substance | target | test | test system | setting | how to read | quantity | value
PhoQ, residues 284 288 289 292 302 303 SMYGEC | PhoP, residues 12 14 15 18 19 SGWQI (Escherichia coli, UniProt P23836) | Sort-seq, item: YFP reporter | E. coli | PhoQ-PhoP variant library, with: 10 µM Mg2+ | relative to: high Mg2+ state, higher = stronger signaling | fold induction | 3.55

Excerpt of the above (single results of other studies):
Substance | target | test | test system | setting | how to read | quantity | value
PhoQ, residues 284 288 289 292 302 303 SMYGEC | PhoP, residues 12 14 15 18 19 SGWQI (Escherichia coli, UniProt P23836) | Sort-seq, item: YFP reporter | E. coli | PhoQ-PhoP variant library, with: 10 µM Mg2+ | relative to: high Mg2+ state, higher = stronger signaling | fold induction | 3.55
